# Measured values gathered from unrelated publications.
# “And” joins repeats or separate records; there may be more than shown. ± marks the error that the study gave.
# YWHAZ: 14-3-3 protein zeta/delta (YWHAZ, Homo sapiens, UniProt P63104)
# UniProt Q9H4M9, sequence (whole entry, looked up): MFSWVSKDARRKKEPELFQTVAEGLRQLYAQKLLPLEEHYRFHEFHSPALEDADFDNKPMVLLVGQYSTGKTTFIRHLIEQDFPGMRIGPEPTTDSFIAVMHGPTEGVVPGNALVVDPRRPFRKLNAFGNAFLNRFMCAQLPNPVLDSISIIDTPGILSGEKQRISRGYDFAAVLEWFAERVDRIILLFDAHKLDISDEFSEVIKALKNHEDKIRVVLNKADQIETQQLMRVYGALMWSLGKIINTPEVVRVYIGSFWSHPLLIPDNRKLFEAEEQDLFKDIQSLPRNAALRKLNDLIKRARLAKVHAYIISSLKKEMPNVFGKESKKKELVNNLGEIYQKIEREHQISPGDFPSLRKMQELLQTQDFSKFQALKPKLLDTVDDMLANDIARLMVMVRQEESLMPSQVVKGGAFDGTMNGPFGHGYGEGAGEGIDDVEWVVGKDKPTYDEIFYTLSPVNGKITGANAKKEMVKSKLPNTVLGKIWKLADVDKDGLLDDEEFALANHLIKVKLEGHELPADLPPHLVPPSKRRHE
# UniProt P63104, sequence (whole entry, looked up): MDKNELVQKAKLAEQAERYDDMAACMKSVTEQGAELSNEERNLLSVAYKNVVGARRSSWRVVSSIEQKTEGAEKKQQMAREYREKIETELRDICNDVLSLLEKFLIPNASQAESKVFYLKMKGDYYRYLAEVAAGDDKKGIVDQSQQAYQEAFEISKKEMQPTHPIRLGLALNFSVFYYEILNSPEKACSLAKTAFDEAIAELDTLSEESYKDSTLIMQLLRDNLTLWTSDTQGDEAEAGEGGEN
# UniProt Q15172, sequence (whole entry, looked up): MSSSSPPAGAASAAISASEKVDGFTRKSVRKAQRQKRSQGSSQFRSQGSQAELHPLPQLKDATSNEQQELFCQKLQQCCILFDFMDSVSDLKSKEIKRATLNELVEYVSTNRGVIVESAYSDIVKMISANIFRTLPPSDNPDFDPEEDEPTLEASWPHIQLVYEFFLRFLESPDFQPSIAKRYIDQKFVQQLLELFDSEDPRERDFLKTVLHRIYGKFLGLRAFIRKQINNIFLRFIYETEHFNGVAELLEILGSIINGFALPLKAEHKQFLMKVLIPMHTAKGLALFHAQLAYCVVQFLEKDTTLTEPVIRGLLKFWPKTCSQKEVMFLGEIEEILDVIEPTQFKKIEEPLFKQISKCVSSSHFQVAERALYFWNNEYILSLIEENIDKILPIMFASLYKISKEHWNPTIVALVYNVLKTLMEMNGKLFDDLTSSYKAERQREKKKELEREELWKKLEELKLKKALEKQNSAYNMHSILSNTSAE
# UniProt P30048, sequence (whole entry, looked up): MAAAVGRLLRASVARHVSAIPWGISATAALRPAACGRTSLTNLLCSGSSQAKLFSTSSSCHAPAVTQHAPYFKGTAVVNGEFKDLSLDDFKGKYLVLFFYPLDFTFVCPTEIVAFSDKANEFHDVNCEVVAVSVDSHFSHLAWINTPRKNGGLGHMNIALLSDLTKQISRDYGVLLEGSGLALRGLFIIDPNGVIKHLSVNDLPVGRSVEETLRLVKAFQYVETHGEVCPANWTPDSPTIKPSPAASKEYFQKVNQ
# UniProt Q14145, sequence (whole entry, looked up): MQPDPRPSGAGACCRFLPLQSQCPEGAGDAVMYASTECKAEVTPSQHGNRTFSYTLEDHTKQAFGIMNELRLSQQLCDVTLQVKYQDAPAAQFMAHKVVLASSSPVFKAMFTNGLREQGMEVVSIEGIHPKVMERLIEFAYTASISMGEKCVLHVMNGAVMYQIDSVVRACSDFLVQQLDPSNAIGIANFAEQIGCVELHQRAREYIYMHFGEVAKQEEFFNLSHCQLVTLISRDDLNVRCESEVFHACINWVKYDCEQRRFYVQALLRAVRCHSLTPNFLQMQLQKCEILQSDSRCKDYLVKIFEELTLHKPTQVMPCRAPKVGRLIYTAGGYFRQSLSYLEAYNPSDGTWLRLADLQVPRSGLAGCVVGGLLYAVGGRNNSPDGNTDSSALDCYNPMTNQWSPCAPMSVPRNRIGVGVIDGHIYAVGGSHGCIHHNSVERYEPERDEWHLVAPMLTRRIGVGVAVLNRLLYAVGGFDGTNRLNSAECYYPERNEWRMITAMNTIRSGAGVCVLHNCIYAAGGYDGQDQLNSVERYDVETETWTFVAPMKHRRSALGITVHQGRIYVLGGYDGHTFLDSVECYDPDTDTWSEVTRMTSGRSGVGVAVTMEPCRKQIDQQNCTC
# UniProt O75581, sequence (whole entry, looked up): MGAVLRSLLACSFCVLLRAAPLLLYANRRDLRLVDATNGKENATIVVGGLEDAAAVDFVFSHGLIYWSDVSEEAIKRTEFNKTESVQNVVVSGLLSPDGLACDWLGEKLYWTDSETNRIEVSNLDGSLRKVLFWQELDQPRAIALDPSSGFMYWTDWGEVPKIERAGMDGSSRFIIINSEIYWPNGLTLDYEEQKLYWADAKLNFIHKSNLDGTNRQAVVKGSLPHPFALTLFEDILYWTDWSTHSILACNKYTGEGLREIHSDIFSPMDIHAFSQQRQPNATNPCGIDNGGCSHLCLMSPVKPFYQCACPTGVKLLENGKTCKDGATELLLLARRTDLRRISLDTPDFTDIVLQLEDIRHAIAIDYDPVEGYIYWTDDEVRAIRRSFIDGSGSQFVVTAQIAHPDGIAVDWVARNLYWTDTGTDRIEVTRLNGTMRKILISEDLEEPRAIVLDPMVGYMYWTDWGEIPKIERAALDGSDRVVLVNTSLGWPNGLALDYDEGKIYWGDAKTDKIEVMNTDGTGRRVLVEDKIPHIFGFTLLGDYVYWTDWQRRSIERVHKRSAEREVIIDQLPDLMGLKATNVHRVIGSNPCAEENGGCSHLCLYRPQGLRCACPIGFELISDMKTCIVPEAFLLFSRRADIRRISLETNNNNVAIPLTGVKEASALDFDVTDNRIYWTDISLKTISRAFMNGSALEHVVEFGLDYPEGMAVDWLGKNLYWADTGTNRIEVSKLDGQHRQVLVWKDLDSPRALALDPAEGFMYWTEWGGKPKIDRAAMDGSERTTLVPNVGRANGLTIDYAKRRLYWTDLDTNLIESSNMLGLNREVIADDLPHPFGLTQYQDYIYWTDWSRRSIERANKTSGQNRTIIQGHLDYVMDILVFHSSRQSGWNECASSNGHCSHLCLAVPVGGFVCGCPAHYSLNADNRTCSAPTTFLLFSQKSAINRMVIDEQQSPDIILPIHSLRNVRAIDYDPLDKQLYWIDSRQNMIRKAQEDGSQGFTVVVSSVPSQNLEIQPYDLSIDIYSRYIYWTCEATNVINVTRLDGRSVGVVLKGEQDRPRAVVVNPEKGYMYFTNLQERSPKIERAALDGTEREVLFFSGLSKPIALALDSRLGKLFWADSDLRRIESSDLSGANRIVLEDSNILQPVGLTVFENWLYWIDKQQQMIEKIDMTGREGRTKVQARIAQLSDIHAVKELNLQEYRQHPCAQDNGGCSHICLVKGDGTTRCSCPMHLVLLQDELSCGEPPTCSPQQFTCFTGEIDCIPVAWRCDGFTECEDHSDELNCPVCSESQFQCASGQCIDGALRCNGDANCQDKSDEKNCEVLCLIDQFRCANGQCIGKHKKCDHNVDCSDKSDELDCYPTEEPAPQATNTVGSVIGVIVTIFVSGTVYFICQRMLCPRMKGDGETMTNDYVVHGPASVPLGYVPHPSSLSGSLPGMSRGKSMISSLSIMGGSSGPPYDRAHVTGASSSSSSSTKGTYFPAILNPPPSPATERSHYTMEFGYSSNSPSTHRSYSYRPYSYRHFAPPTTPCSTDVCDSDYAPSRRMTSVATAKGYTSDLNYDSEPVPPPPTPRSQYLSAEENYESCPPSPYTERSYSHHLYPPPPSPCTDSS
# UniProt O15294, sequence (whole entry, looked up): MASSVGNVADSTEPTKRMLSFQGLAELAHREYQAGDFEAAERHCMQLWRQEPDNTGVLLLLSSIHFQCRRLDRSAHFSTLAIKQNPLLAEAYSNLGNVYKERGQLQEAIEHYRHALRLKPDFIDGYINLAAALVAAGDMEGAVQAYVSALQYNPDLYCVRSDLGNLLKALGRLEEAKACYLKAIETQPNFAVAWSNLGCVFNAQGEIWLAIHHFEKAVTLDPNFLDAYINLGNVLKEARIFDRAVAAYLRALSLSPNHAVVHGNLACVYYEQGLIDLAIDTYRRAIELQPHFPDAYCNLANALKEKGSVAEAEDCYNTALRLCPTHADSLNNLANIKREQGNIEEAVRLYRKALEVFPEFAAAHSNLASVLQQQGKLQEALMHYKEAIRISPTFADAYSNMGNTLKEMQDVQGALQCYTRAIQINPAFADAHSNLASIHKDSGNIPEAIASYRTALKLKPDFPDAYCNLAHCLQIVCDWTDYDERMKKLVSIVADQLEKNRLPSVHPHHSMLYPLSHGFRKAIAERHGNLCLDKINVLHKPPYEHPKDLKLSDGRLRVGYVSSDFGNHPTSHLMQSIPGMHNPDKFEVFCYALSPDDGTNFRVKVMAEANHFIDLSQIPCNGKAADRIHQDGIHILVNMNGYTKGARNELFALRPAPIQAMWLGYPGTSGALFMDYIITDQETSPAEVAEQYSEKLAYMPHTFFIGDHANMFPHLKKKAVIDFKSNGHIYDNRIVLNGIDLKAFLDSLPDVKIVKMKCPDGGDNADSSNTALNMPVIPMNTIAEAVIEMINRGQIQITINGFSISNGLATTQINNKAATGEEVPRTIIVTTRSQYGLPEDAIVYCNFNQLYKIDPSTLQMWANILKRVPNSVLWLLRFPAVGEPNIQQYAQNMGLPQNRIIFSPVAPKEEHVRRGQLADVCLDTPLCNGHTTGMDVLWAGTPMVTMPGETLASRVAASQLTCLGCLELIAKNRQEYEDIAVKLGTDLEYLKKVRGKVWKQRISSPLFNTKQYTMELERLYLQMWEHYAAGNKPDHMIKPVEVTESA
# UniProt P83916, sequence (whole entry, looked up): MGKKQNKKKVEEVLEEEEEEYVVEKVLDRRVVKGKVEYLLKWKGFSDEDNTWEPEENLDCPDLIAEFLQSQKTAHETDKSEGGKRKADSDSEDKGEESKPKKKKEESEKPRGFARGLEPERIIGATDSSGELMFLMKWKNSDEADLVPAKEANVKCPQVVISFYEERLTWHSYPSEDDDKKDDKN
Compound,target or system,assay,test system,setting,scale,measurement,result
Cc1ccc2c(C(C[N+](=O)[O-])c3cccs3)c(-c3ccccc3)[nH]c2c1 (centres unmarked),"Cannabinoid receptor 1 (CNR1, Homo sapiens, UniProt P21554, N393A)","receptor activation, agonist",,,,EC50,0.28 ± 0.07 µM
CC[C@H](C)[C@@H]1NC(=O)[C@@H](Cc2ccccc2)NC(=O)[C@@H](Cc2ccccc2)NC(=O)[C@@H](C)NC(=O)[C@H](CCC(=O)N[C@@H](CCCCN)C(N)=O)NC(=O)[C@@H](C)NC(=O)[C@@H](C)NC(=O)[C@@H](C)NC(=O)[C@H](Cc2c[nH]c3ccccc23)NC(=O)[C@H](CCCNC(=N)N)NC1=O,"cysS (Escherichia coli, UniProt P21888)",binding,,,,Kd,1.1 µM
O=C1NC2(CC2)COc2ncc(F)cc2[C@H]2COCCN2c2ccn3ncc1c3n2,,,"Sprague-Dawley rat, female, kidneys","oral, 10 mg/kg/day, 4 weeks, end of treatment",,organ-to-body weight ratio,0.628 ± 0.05%
CC[C@H](C)[C@H](NC(=O)[C@H](CO)NC(=O)[C@H](CCCNC(=N)N)NC(=O)[C@H](CCCNC(=N)N)NC(=O)[C@H](CCCNC(=N)N)NC(=O)[C@H](CCC(N)=O)NC(=O)[C@H](CCCNC(=N)N)NC(=O)[C@H](CCCNC(=N)N)NC(=O)[C@H](CCCCN)NC(=O)[C@H](CCCCN)NC(=O)[C@H](CCCNC(=N)N)NC(=O)CNC(=O)[C@@H](N)Cc1ccc(O)cc1)C(=O)N[C@@H](C)C(=O)N[C@@H](CC(N)=O)C(=O)N[C@@H](CC(C)C)C(=O)N[C@@H](CC(N)=O)C(=O)N[C@@H](CCCNC(=N)N)C(=O)N[C@@H](CO)C(=O)N[C@H](C(=O)N[C@@H](CO)C(=O)N[C@H](C(=O)N1CCC[C@H]1C(=O)N[C@@H](CCC(=O)O)C(=O)N[C@@H](CC(N)=O)C(=O)O)C(C)C)[C@@H](C)O,"UDP-N-acetylglucosamine--peptide N-acetylglucosaminyltransferase 110 kDa subunit (OGT, Homo sapiens, UniProt O15294)",microscale thermophoresis,transfected 293T cell lysate,"10 min, room temperature",,Kd,12.6 ± 4.25 µM
COCC[C@H](NC(=O)[C@@H](C)NC(=O)[C@@H](NC(=O)[C@@H](NC(=O)[C@@H](F)CC(C)(C)C)C(C)(C)O)[C@@H](C)c1ccccc1)C(=O)N(C)Cc1ccccc1,"Ras GTPase-activating protein-binding protein 1 (G3BP1, Homo sapiens, UniProt Q13283)","binding, SPR",,,,Kd,0.54 µM
CC(=O)N[C@@H](Cc1ccc(O)cc1)C(=O)N[C@@H](CC(N)=O)C(=O)N1CCC[C@H]1C(=O)N[C@@H](Cc1ccccc1)C(=O)N[C@@H](CCC(=O)O)C(=O)N[C@@H](CCC(=O)O)C(=O)NCC(=O)NCC(N)=O,"EH domain-containing protein 1, EH domain (Homo sapiens, UniProt Q9H4M9)","peptide binding, ITC",,"20 °C, 15 mM NaCl",,Kd,11.1 µM and 9.17 µM and 8.54 µM and 8.62 µM
CC(CO)C1CN2C(=O)[C@H](CC(=O)O)NC(=O)CC(CC3CC3)NC(=O)[C@H](CCC(=O)O)NC(=O)CNC(=O)[C@H]([C@@H](C)O)NC(=O)[C@H](CCC(=O)O)NC(=O)[C@@H]2C1(F)F (some centres unmarked),"Kelch-like ECH-associated protein 1 (KEAP1, Homo sapiens, UniProt Q14145)",microscale thermophoresis,,,,Kd,0.0071 ± 0.0002 µM
CC[C@H](C)[C@H](NC(=O)[C@H](CC(=O)O)NC(=O)[C@H](CCCNC(=N)N)NC(=O)[C@@H](NC(=O)c1ccc2c(c1)C(=O)OC21c2ccc(N(C)C)cc2Oc2cc(N(C)C)ccc21)[C@@H](C)O)C(=O)N[C@@H](Cc1ccc(O)cc1)C(=O)N[C@@H](CCC(=O)O)C(=O)N[C@H](C(=O)N[C@@H](CC(=O)O)C(=O)N[C@@H](Cc1ccc(O)cc1)C(=O)N[C@@H](Cc1ccc(OP(=O)(O)O)cc1)C(=O)N[C@@H](CCCNC(=N)N)C(=O)N[C@@H](CCCCN)C(=O)NCC(=O)NCC(=O)N[C@@H](CCCCN)C(=O)NCC(=O)N[C@@H](CC(C)C)C(=O)N[C@@H](CC(=O)O)C(=O)O)[C@@H](C)O,"Crk-like protein, SH2 domain (Homo sapiens, UniProt P46109)",binding,,,,Kd,1.83 µM
CC[C@H](C)[C@@H]1NC(=O)[C@H](Cc2c[nH]cn2)NC(=O)[C@H](CC(N)=O)NC(=O)[C@H](CO)NC(=O)[C@H](CCC(N)=O)NC(=O)[C@@H](NC(=O)CN)CSSC[C@@H]2NC(=O)CNC(=O)[C@H](C)NC(=O)[C@H](CC(C)C)NC(=O)[C@@H]3CSSC[C@@H](C(=O)NCC(=O)O)NC(=O)[C@H](Cc4ccccc4)NC(=O)CNC(=O)[C@H](CC(N)=O)NC(=O)[C@@H]4CCCN4C(=O)CNC(=O)[C@H](CSSC[C@H](NC(=O)[C@H](CCCNC(=N)N)NC(=O)[C@H](CC(N)=O)NC(=O)[C@H](Cc4c[nH]cn4)NC(=O)[C@H](CCCCN)NC(=O)[C@H](CC(C)C)NC1=O)C(=O)N[C@@H](CCCCN)C(=O)N[C@@H](CCC(N)=O)C(=O)N[C@@H](CC(=O)O)C(=O)N[C@@H](CO)C(=O)N[C@@H](CC(=O)O)C(=O)N3)NC(=O)[C@H](C(C)C)NC2=O,"Low-density lipoprotein receptor-related protein 6, E1 domain (LRP6, Homo sapiens, UniProt O75581)","binding, SPR",,pH 7.5,,Kd,0.00101 µM
CC(=O)NC1C(O)OC(CO)C(OC2OC(CO)C(OC3OC(CO)C(O)C(O)C3O)C(O)C2O)C1O (centres unmarked),"sly (Streptococcus suis, UniProt Q55996, S396A)",binding,,,,Kd,1.77 µM
CC=C1CN2CCc3c([nH]c4ccccc34)C2CC1C(=COC)C(=O)OC (centres unmarked),"Thioredoxin-dependent peroxide reductase, mitochondrial (PRDX3, Homo sapiens, UniProt P30048)","binding, SPR",,,,Kd,21.8 µM
CC[C@H](C)[C@H](NC(=O)[C@H](CC(C)C)NC(=O)[C@H](CC(N)=O)NC(=O)[C@H](CCC(N)=O)NC(=O)[C@H](CCCNC(=N)N)NC(=O)[C@H](CCCNC(=N)N)NC(=O)[C@@H](N)CCCCN)C(=O)N[C@@H](CCCNC(=N)N)C(=O)N[C@@H](Cc1c[nH]cn1)C(=O)N[C@@H](Cc1ccccc1)C(=O)N[C@@H](Cc1ccccc1)C(=O)N[C@@H](Cc1c[nH]cn1)C(=O)N[C@@H](CO)C(=O)N[C@@H](CCCCN)C(=O)N[C@@H](CCCNC(=N)N)C(N)=O,"Proliferating cell nuclear antigen (PCNA, Homo sapiens, UniProt P12004)",binding,,pH 7.4,,Kd,> 40 µM
C[C@H](N)C(=O)N[C@@H](CCCNC(=N)N)C(=O)N[C@H](C(=O)N[C@@H](CCCCN)C(=O)N[C@@H](CCC(N)=O)C(=O)N[C@H](C(=O)N[C@@H](C)C(=O)N[C@@H](CCCNC(=N)N)C(=O)N[C@@H](CCCCN)C(=O)N[C@@H](CO)C(=O)N[C@H](C(=O)NCC(=O)NCC(=O)N[C@@H](CCCCN)C(=O)N[C@@H](C)C(=O)N[C@@H](Cc1ccc(O)cc1)C(N)=O)[C@@H](C)O)[C@@H](C)O)[C@@H](C)O,"Chromobox protein homolog 1, chromodomain (Homo sapiens, UniProt P83916)",ITC,,"pH 7.4, 25 °C",,Kd,> 500 µM
O=C(N[C@@H]1c2ccccc2C[C@H]1N1CCCC1)c1ccc(-c2ccnc3[nH]ccc23)nc1,"cAMP-dependent protein kinase catalytic subunit beta (PRKACB, Homo sapiens, UniProt P22694)","binding, competition with immobilised ligand",,,,Kd,0.0048 µM
CC(C)(C)C(=O)OCOP(=O)(OCOC(=O)C(C)(C)C)C1CCCN(O)C1=O (centres unmarked),HOP-92,,,,,GI50,0.695 µM
CC(=O)N[C@@H](CCCNC(=N)N)C(=O)N[C@H](C(=O)N1CCC[C@H]1C(=O)N[C@@H](COP(=O)(O)O)C(=O)N[C@@H](CC(C)C)C(=O)N1CCC[C@H]1C(=O)N[C@H](C(=O)N1CCC[C@H]1C(c1ccccc1)c1ccccc1)C(C)C)[C@@H](C)O,YWHAZ,isothermal titration calorimetry,,first duplicate,,Kd,2.23 ± 0.74 µM
CC[C@H](C)[C@H](NC(=O)[C@H](CO)NC(=S)Nc1ccc2c(c1)C(=O)OC21c2ccc(O)cc2Oc2cc(O)ccc21)C(=O)N[C@@H](CCC(=O)O)C(=O)N[C@@H](CCCCN)C(=O)NCC(=O)NCC(=O)N[C@@H](CCP(=O)(O)O)C(=O)N[C@@H](CC(C)C)C(=O)N1CCC[C@H]1C(=O)N[C@@H](CCCCN)C(=O)N[C@H](C(=O)N[C@@H](Cc1c[nH]c2ccccc12)C(=O)N[C@@H](CC(C)C)C(=O)N[C@H](C(=O)N1CCC[C@H]1C(=O)N[C@@H](CCCNC(=N)N)C(=O)O)C(C)C)C(C)C,"14-3-3 protein theta (Homo sapiens, UniProt P27348)","binding, fluorescence anisotropy",,"pH 7.5, FITC-labelled phosphopeptide titration",,Kd,88 µM
CC[C@H](C)[C@H](NC(=O)[C@@H]1CCCN1C(=O)[C@H](CO)NC(=O)[C@H](Cc1ccccc1)NC(=O)CNC(=O)[C@H](CO)NC(=O)[C@H](Cc1ccccc1)NC(=O)[C@H](Cc1ccccc1)NC(=O)[C@H](CO)NC(=O)[C@@H](N)[C@@H](C)O)C(=O)N[C@@H](CCC(=O)O)C(=O)N[C@@H](CCC(=O)O)C(=O)N[C@@H](CC(=O)O)C(=O)N[C@@H](C)C(=O)N[C@@H](Cc1c[nH]cn1)C(=O)O,"Serine/threonine-protein phosphatase 2A 56 kDa regulatory subunit alpha isoform (Homo sapiens, UniProt Q15172)","binding, bead-based Langmuir fit",,pH 7.5,,Kd,14.5 µM
CC(C)C[C@H](NC(=O)CNC(=O)[C@H](C)NC(=O)[C@H](CC(=O)O)NC(=O)[C@H](CC(=O)O)NC(=O)[C@H](C)NC(=O)[C@@H]1CCCN1C(=O)[C@H](CCCCN)NC(=O)CNC(=O)[C@H](C)NC(=O)[C@@H]1CCCN1C(=O)[C@@H]1CCCN1C(=O)[C@H](CCC(=O)O)NC(=O)CN)C(=O)N[C@H](C(=O)O)C(C)C,"F-box only protein 22 (Homo sapiens, UniProt Q8NEZ5)","binding, SPR",,,,Kd,24 µM
COCC[C@H](NC(=O)[C@H](CCC(=O)O)NC(=O)[C@H](CCCNC(=N)N)NC(=O)[C@H](C)NC(=O)[C@H](Cc1c[nH]c2ccccc12)NC(=O)[C@H](CCC(=O)O)NC(=O)[C@H](CCC(=O)O)NC(=O)[C@H](CCC(=O)O)NC(C)=O)C(=O)NCC(=O)N[C@@H](C)C(=O)N[C@@H](CCC(N)=O)C(=O)N[C@@H](CC(C)C)C(=O)N[C@@H](CCCNC(=N)N)C(=O)N[C@@H](CCCNC(=N)N)C(=O)N[C@@H](C)C(=O)N[C@@H](C)C(=O)N[C@@H](CC(=O)O)C(=O)N[C@@H](CC(=O)O)C(=O)N[C@@H](CC(C)C)C(=O)N[C@@H](CC(N)=O)C(=O)N[C@@H](C)C(=O)N[C@@H](CCC(N)=O)C(=O)N[C@@H](Cc1ccc(O)cc1)C(=O)N[C@@H](CCC(=O)O)C(=O)N[C@@H](CCCNC(=N)N)C(=O)N[C@@H](CCCNC(=N)N)C(=O)N[C@@H](CCCNC(=N)N)C(N)=O,"Induced myeloid leukemia cell differentiation protein Mcl-1 homolog, residues 152-308 (Mus musculus, UniProt P97287)","binding, SPR",,0.2% DMSO,,Kd,0.037 µM
CC(=O)N[C@@H](CCCNC(=N)N)C(=O)N[C@H](C(=O)N1CCC[C@H]1C(=O)N[C@@H](COP(=O)(O)O)C(=O)N[C@@H](CC(C)C)C(=O)N1CCC[C@H]1C(=O)N[C@@H](C)C(=O)N1CCC[C@H]1C(c1ccccc1)c1ccccc1)[C@@H](C)O,YWHAZ,isothermal titration calorimetry,,,,Kd,4.67 ± 0.99 µM
COc1ccccc1-c1n[nH]c2nc(NC3CCN(C(=O)Cc4ccc(F)cc4F)CC3)ncc12,,"bead binding, competition bead pull-down, refers to: LINJ.35.1490",Leishmania donovani axenic amastigote extract,10 µM,reference: vehicle,relative abundance,1.07
CC(C)C[C@H](NC(=O)[C@H](CCCCN)NC(=O)CNC(=O)[C@H](Cc1ccccc1)NC(=O)[C@H](CO)NC(=O)[C@H](Cc1c[nH]c2ccccc12)NC(=O)[C@H](Cc1c[nH]c2ccccc12)NC(=O)[C@@H]1CCCN1C(=O)[C@@H]1CCCN1)C(=O)N[C@@H](Cc1c[nH]cn1)C(=O)N[C@@H](C)C(=O)N1CCC[C@H]1C(=O)O,"V-type immunoglobulin domain-containing suppressor of T-cell activation, IgV domain (VSIR, Homo sapiens, UniProt Q9H7M9)","binding, microscale thermophoresis",,,,Kd,12.3 µM

# Some of these lines once more:
Compound,target or system,assay,test system,setting,scale,measurement,result
CC(C)(C)C(=O)OCOP(=O)(OCOC(=O)C(C)(C)C)C1CCCN(O)C1=O (centres unmarked),HOP-92,,,,,GI50,0.695 µM
CC(=O)N[C@@H](CCCNC(=N)N)C(=O)N[C@H](C(=O)N1CCC[C@H]1C(=O)N[C@@H](COP(=O)(O)O)C(=O)N[C@@H](CC(C)C)C(=O)N1CCC[C@H]1C(=O)N[C@H](C(=O)N1CCC[C@H]1C(c1ccccc1)c1ccccc1)C(C)C)[C@@H](C)O,YWHAZ,isothermal titration calorimetry,,first duplicate,,Kd,2.23 ± 0.74 µM
